Experimental data collected from several papers.
Each line is one published result; not all experiments were run side by side. “And” joins repeats or separate records; there may be more than shown.
Target: Tyrosine-protein kinase ABL2 (ABL2, Homo sapiens, UniProt P42684)

Structure (SMILES)	effect on	action	method	concentration	reference	quantity	value
COCC12C(=O)NC3C4(C(OC)CC1O)C1CC5(O)C(OC)C(O)C(OC(C)=O)(C1C5OC(=O)c1ccccc1)C3(O)C(OC)C24 (stereo not shown)	kinase activity	inhibitor	ProQinase kinase profiling	25 µM	control	remaining activity	108% and 102%
CNC(=O)C[C@H](Cc1ccc(C#N)cc1)NC(=O)c1cc(-c2ccc(CN[C@H](C)c3ccc(C)cc3)o2)ccc1Cl	enzyme activity	inhibitor		1 µM		activity vs control	86%
COc1cc(Nc2nccc(-c3cnn4nc(OC)ccc34)n2)cc(C(F)(F)F)c1	binding		competition with immobilised ligand	1 µM		remaining binding	100%
O=c1c(-c2ccc(Cl)c(CN3CCOCC3)c2)coc2cc(O)ccc12	enzyme activity	inhibitor		1 µM		remaining activity	96%
CNC1C[S+]2CC[S+]3CC[S+](C1)[Ru-4]321([N]=C=S)[n]2c3ccc(OC)cc3c3c4c(c5cc(F)c[n+]1c5c32)C(=O)NC4=O (stereo not shown)			KinomeScan	0.1 µM	untreated	remaining binding	97%
NC(=O)[C@@H](O)C[C@H]1CCc2sc3ncnc(O[C@H]4CC[C@H](N5CCOCC5)CC4)c3c21	enzyme activity	inhibitor		10 µM		inhibition	21%
C=CC(=O)Nc1cccc(-c2cnc3[nH]cc(C(=O)NC(C)(C)C)c3n2)c1	enzyme activity	inhibitor		0.1 µM		inhibition	11%
Cc1ccc(-c2c(/C=C(\C#N)C(=O)NC(C)C)n(CCCO)c3ncnc(N)c23)cc1	cell-free assay		competition with immobilised ligand	1 µM		remaining binding	81%
Cc1ccc(C(=O)Nc2cccc(C(F)(F)F)c2)cc1Nc1cncc(C(N)=O)c1	binding		competition with immobilised ligand	1 µM		remaining binding	21%
O=C(Nc1ccc(Oc2ncnc3[nH]cc(-c4ccccc4)c23)c(F)c1)c1c2n(n(-c3cc(F)ccc3F)c1=O)CCCC2	enzyme activity	inhibitor		0.5 µM		inhibition	10%
C=CC(=O)N1CCCC(n2c(=O)c3ncccc3n(Cc3ccc(Oc4ccccc4)cc3)c2=O)C1 (stereo not shown)	cell-free assay		competition with immobilised ligand	1 µM		remaining binding	83%
C=CC(=O)N1Cc2nc(-c3cc(-c4cc(Cl)cnc4Cl)c(F)cc3F)n(-c3ccncn3)c2C1	cell-free assay	inhibitor		1 µM		inhibition	10.2%
Nc1ncc2c(n1)-c1c([nH]c3ccc(C4=CCOCC4)cc13)CCC2	binding		competition with immobilised ligand	1 µM		remaining binding	93%
Cc1cccc(O[C@H]2CCC[C@@H](C(C)CNCc3ccncc3)C2)c1 (relative stereo)	enzyme activity	inhibitor		1 µM		inhibition	-6%
C[C@H]1CN(C(=O)c2cn(-c3ccnc(N)n3)c3cc(C#CC4(O)CCCCC4)ccc23)CCN1	enzyme activity	inhibitor	FRET	1 µM		inhibition	-1%
O=C(Cc1ccc(OCc2ccccc2)cc1)NC1(C(=O)O)CCN(C(=O)c2ccc(-c3cccc(Cl)c3)cc2)CC1	enzyme activity	inhibitor		10 µM		activity vs control	131%
